Measured values from different studies.
“And” joins repeats or separate records; there may be more than shown. Converted amounts (≈) assume the structure as drawn.

SMILES | organism | test | test system | setting | how to read | endpoint | result
C[C@H](NC(=O)Nc1cc2[nH]ncc2c(CO)n1)c1ccccn1 | murine hepatitis virus | viral replication, nanoluciferase reporter | DBT | 1 µM, 10 h | baseline: DMSO vehicle | inhibition | 25%
Cc1c([N+](=O)[O-])oc2ccc3ccccc3c12 | Enterobacter cloacae | REMA |  |  |  | MIC90 | 4 µg/mL (≈ 17.6 µM)
CS(=O)(=O)CCCn1c(Cn2c(=O)n(CC(F)(F)F)c3ccncc32)cc2cc(Cl)ccc21 | respiratory syncytial virus | RT-qPCR | hospitalized infants 1-24 months, nasal swab | oral, 2, 1.5 or 1 mg/kg daily, day 3, low dose by age cohort | baseline: baseline | LS mean viral load change | -2.56 log10 copies/mL
Nc1ncnc2c([C@@H]3N[C@H](CO)[C@@H](O)[C@H]3O)c[nH]c12 | Measles morbillivirus | viral replication | Vero 76, Chicago | 29.6 µM |  | inhibition | 60%
Nc1c([N+](=O)[O-])oc2ccc3ccccc3c12 | Enterobacter cloacae | REMA |  |  |  | MIC90 | > 32 µg/mL
Cc1c2c(nn1C)CSCc1cc(n(C)n1)CSc1cc(c3ccccc3c1)OCCCc1c(C(=O)O)n(C)c3c-2c(Cl)ccc13 | Staphylococcus aureus | label-free quantitative proteomics, item: SAOUHSC_00284 protein | SA113 | concentration not given | baseline: untreated control | log2 fold change | -4.79
Nc1ccn(C[C@@H](CO)OCP(=O)(O)O)c(=O)n1 | varicella-zoster virus |  | HFF, Ellen |  | baseline: CC50 over EC50 | selectivity index | 115
CCCC(CCC)C(=O)O | Artemia franciscana | LC-MS/MS metabolomics, item: 1-aminocyclopropanecarboxylic acid | larvae | concentration not given, 24 h, LC1 concentration | baseline: vehicle | log2 fold change | 0.963
CC(C)C[C@H](NC(=O)[C@H](CCCNC(=N)N)NC(=O)[C@H](Cc1c[nH]c2ccccc12)NC(=O)[C@H](CCCNC(=N)N)NC(=O)[C@H](Cc1c[nH]c2ccccc12)NC(=O)[C@H](Cc1c[nH]c2ccccc12)NC(=O)[C@H](Cc1c[nH]c2ccccc12)NC(=O)[C@H](CCCNC(=N)N)NC(=O)[C@H](Cc1c[nH]c2ccccc12)NC(=O)[C@H](CCCNC(=N)N)NC(=O)CN)C(N)=O | Candida albicans | broth microdilution | CGMCC 2.209, RPMI 1640-MOPS | 48 h, 30 °C, added: NH4Cl 6 µM |  | MIC | 64 µM (≈ 112 µg/mL)
CS(=O)(=O)N1CCCC(NC(=O)[C@H](CCC2CCCCC2)NC(=O)c2ccc(CNc3ncnc4c3nnn4-c3ccccc3)cc2)C1 (stereo partly drawn) | murine hepatitis virus | viral replication, nanoluciferase reporter | DBT | 1 µM, 10 h | baseline: DMSO vehicle | inhibition | 0%
Nc1ncnc2c1ncn2[C@@H]1O[C@@H]2COP(=O)(O)O[C@H]3[C@@H](O)[C@H](n4cnc5c(=O)[nH]cnc54)O[C@@H]3COP(=O)(O)O[C@H]2[C@H]1O | West Nile virus | RNA sequencing, item: TLR endosomal trafficking processing R-HSA-1679131 | HFF-1 cells | concentration not given, upregulated pathway | baseline: WNV-infected untreated cells | fold enrichment | 11.8
O=C(O)[C@]1(Cc2cccc(Nc3nccs3)n2)CC[C@@H](Oc2cccc(Cl)c2F)CC1 | murine hepatitis virus | viral replication, nanoluciferase reporter | DBT | 1 µM, 10 h | baseline: DMSO vehicle | inhibition | 9%
N=C(N)NCCC[C@H](NC(=O)CN)C(=O)N[C@@H](Cc1c[nH]c2ccccc12)C(=O)N[C@@H](CCCNC(=N)N)C(=O)N[C@@H](Cc1c[nH]c2ccccc12)C(=O)N[C@@H](Cc1c[nH]c2ccccc12)C(=O)N[C@@H](Cc1c[nH]c2ccccc12)C(=O)N[C@@H](CCCNC(=N)N)C(=O)N[C@@H](Cc1c[nH]c2ccccc12)C(=O)N[C@@H](CCCNC(=N)N)C(=O)N[C@@H](Cc1c[nH]c2ccccc12)C(N)=O | Candida parapsilosis | broth microdilution | CGMCC 2.399, RPMI 1640-MOPS | 48 h, 30 °C |  | MIC | 8 µM (≈ 14.5 µg/mL)
CC(=O)C1=CC[C@H]2[C@@H]3CCC4=CC(=O)CC[C@]4(C)[C@H]3C[C@@H](O)[C@]12C | Leishmania mexicana | parasite growth, propidium iodide flow cytometry | promastigotes | 48 h |  | IC50 | 9.2 µM
Cc1cc(C)c(-n2ccn3nc(-c4cccnc4)cc23)cc1NC(=O)c1cc(C#N)cc(S(F)(F)(F)(F)F)c1 | murine hepatitis virus | viral replication, nanoluciferase reporter | DBT | 1 µM, 10 h | baseline: DMSO vehicle | inhibition | 42%
N=C(N)NCCC[C@H](NC(=O)[C@H](Cc1c[nH]c2ccccc12)NC(=O)[C@H](CCCNC(=N)N)NC(=O)[C@H](Cc1c[nH]c2ccccc12)NC(=O)[C@H](Cc1c[nH]c2ccccc12)NC(=O)[C@H](Cc1c[nH]c2ccccc12)NC(=O)[C@H](CCCNC(=N)N)NC(=O)[C@H](Cc1c[nH]c2ccccc12)NC(=O)[C@@H](N)CCCNC(=N)N)C(=O)N[C@@H](Cc1c[nH]c2ccccc12)C(N)=O | Candida albicans |  | CGMCC 2.209 | no added salts |  | MIC | 8 µM
Nc1ccn([C@@H]2O[C@H](CO)[C@@H](O)C2(F)F)c(=O)n1 | human alphaherpesvirus 1 |  | primary human fibroblasts, K26 GFP | CC50 capped at 10.00 µM | baseline: CC50 over IC50 | selectivity index | > 200
COc1cc2ccc3oc([N+](=O)[O-])cc3c2cc1OC | Enterobacter cloacae | REMA |  |  |  | MIC90 | > 32 µg/mL
CN1CCN(C(=O)C(C)(C)c2ccc(C(=O)Nc3cn4cc(-c5cc(C(C)(C)C)cc(C(C)(C)C)c5)ccc4n3)cc2)CC1 | murine hepatitis virus | viral replication, nanoluciferase reporter | DBT | 1 µM, 10 h | baseline: DMSO vehicle | inhibition | -1%
CC[C@H](C)[C@H](NC(=O)[C@H](C)NC(=O)[C@H](CCCCN)NC(=O)[C@H](CC(C)C)NC(=O)[C@H](C)NC(=O)[C@@H](NC(=O)[C@H](Cc1c[nH]cn1)NC(=O)[C@H](CC(C)C)NC(=O)[C@@H](NC(=O)[C@@H](NC(=O)[C@H](CCCCN)NC(=O)[C@H](C)NC(=O)[C@H](C)NC(=O)[C@H](CO)NC(=O)[C@H](CCCCN)NC(=O)[C@H](Cc1ccccc1)NC(=O)[C@@H](NC(=O)[C@H](CCCCN)NC(=O)[C@H](CC(C)C)NC(=O)[C@H](Cc1ccccc1)NC(=O)[C@H](CO)NC(=O)[C@H](CCCCN)NC(=O)[C@H](Cc1c[nH]c2ccccc12)NC(=O)[C@H](CCCCN)NC(C)=O)[C@@H](C)O)[C@@H](C)O)C(C)C)[C@@H](C)O)C(=O)N[C@@H](CO)C(=O)N[C@@H](CO)C(N)=O | Staphylococcus aureus |  | MRSA | 130 strains |  | MIC90 | 8 µg/mL (≈ 2.73 µM)
COC(=O)C1=C(C)NC(C)=C(C(=O)OC(C)(C)CN(C)CCC(c2ccccc2)c2ccccc2)C1c1cccc([N+](=O)[O-])c1 (stereo not drawn) | Aspergillus fumigatus |  |  | 1.95 µM, 48 h, conidia, added: caspofungin 0.2 µg/mL | baseline: caspofungin alone | CFU relative | 0.524 and 1 and 1.03
C#Cc1ccc(O)c(C=NNC(=O)c2ccc(Br)c(Br)c2)c1 | Aspergillus fumigatus |  | 293 | unit not given, added: voriconazole | lower = more synergy | FICI | 2
Fc1ccc(-c2nn3ccccc3c2-c2ccncc2)cc1 | Aspergillus fumigatus |  |  | 20 µM | baseline: untreated | metabolic activity | ≥ 80%
O=C(O)c1ccc2c3c1cccc3c(=O)n1c3ccccc3nc21 | murine hepatitis virus | viral replication, nanoluciferase reporter | DBT | 1 µM, 10 h | baseline: DMSO vehicle | inhibition | 6%

A few entries again:
SMILES | organism | test | test system | setting | how to read | endpoint | result
O=C(O)[C@]1(Cc2cccc(Nc3nccs3)n2)CC[C@@H](Oc2cccc(Cl)c2F)CC1 | murine hepatitis virus | viral replication, nanoluciferase reporter | DBT | 1 µM, 10 h | baseline: DMSO vehicle | inhibition | 9%
C#Cc1ccc(O)c(C=NNC(=O)c2ccc(Br)c(Br)c2)c1 | Aspergillus fumigatus |  | 293 | unit not given, added: voriconazole | lower = more synergy | FICI | 2
Cc1c2c(nn1C)CSCc1cc(n(C)n1)CSc1cc(c3ccccc3c1)OCCCc1c(C(=O)O)n(C)c3c-2c(Cl)ccc13 | Staphylococcus aureus | label-free quantitative proteomics, item: SAOUHSC_00284 protein | SA113 | concentration not given | baseline: untreated control | log2 fold change | -4.79
Nc1c([N+](=O)[O-])oc2ccc3ccccc3c12 | Enterobacter cloacae | REMA |  |  |  | MIC90 | > 32 µg/mL
